Measured values collected from several papers.
Numbered parts are unrelated; each lists some results of a single study. Changes are numbered by the printed parent chain.

Study 1
Target: ABI1, truncated, D143A, DHFR fusion (Arabidopsis thaliana)
Technique: DHFR PCA, deep sequencing
Sample: yeast
Setting: methotrexate growth selection, single substitutions
With: (+)-ABA 4.8 µM
Reference: wild-type fitted maximum
Reading: higher = stronger binding
Parent: PYL1, truncated, DHFR fusion (Arabidopsis thaliana); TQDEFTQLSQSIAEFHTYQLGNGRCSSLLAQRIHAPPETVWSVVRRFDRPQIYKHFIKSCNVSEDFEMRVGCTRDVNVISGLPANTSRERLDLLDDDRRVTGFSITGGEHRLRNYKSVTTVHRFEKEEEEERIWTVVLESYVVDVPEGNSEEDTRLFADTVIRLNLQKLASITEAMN; partner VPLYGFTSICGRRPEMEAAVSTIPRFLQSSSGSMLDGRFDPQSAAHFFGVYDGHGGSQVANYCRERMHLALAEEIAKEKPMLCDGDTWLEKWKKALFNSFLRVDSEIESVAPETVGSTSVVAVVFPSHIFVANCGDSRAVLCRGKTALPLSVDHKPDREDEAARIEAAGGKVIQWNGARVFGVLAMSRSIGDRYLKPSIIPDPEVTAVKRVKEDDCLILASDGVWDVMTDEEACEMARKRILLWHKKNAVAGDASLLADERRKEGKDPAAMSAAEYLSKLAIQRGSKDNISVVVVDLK
Variant	relative binding score
L166E	-15.2%
M176T	56.2%
E89H	-12%
G148D	44.1%
L94R	-5.79%
L169Y	17.6%
L29M	44.2%
T1E	74.3%
T17D	16%
I79F	64.5%
F124V	77.8%
T154P	-1.8%
T1C	73.5%
R155Y	-8.07%
L93E	26.8%

Study 2
Target: RING finger protein unkempt homolog, zinc fingers 1-6, GST-SBP tag (UNK, Homo sapiens, UniProt Q9C0B0, residues 30-357)
UniProt Q9C0B0, sequence (30-357, looked up): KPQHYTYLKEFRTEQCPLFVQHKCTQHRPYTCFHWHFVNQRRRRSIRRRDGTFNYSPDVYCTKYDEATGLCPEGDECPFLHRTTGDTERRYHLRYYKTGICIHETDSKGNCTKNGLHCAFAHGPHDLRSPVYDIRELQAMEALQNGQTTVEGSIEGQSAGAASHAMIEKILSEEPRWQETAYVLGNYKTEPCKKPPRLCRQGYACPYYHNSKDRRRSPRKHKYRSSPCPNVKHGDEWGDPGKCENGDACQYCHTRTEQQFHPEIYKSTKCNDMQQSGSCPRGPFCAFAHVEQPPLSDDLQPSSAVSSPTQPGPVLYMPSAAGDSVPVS
Technique: RNA Bind-n-Seq
Molecule type: RNA
Sample: in vitro
Tested at: not given
Setting: RNA with constant flanks, human-mouse chimeric sites, ends assumed
Reference: input RNA pool
Reading: higher = stronger binding
Shared flanks, not repeated: GGGAGUUCUACAGUCCGACGAUC … CAACAGAGGAUUGAGCAUCA
Oligonucleotide	bound/input enrichment [ratio]
AAAGAGAAACUAAAGCAACUAAUAGAGGAAGAGGAUUGCAAAGAGAAUUUCAUAGAGAAACUAGGAUUUAUUAGCAAACAUGAGUUAUAUUCCAGAGGCAUCUCAGAACCCCAGCCAAAC	11
AAAGAGAAACUAAAGCAACUAAUAGAGAAGAGGAUUGGCAAAGAGAAUUUCAUAGAGAAACUAGGAUUUAUUAGCAAACAUGAGUUAUAUUCCAGAGGCAUCUCAGAAACCCCAGCCAAC	9.58
UCAUUUUUCUCUUUUCUUUCUUUCCUUUAGGAAAAGCCUAAAGAUUAGUAAGAAAAGAAAACAGAAGCCAUGUUUCGAAGACCUGUGUUACAGGUAUUUCGUCAGUUUGUAAGACAUGAG	0.177
AAAGAACCUCUCUCUGAAGAAGAGGAAGACAGUGAUGAUGAUGUUGAACCCAUUUCUGAAUUUCGAUUUGUGCCCAGUGAUAAGUCAGCAUUGGAGGCGAUGUUCACAGCAAUGUGUGAG	0.219
ACAGUUAUACACUGUUGUUUCAUUUUCAUAUAUUCUUGUAGUGUCUGCUUGCCUGUGACUUCUGGUAAAAUAAAAUAAGCCUUUGAAAAUAUUUUAGAUUUAACAUUAACAUUUUCUAAA	6.73
UCUUUAAAAAAAAAAUUACCUUUUCUGACAGUGCUUUAUGGAGUAAAGAUCCACGUUCAAGCUCAAAGAGCAAAGGCUCCGCAAACAGCUCAAACAUCUGAUGAAGAAAGAUUUCUGAGA	0.139
ACCUCCCCCUCCCGCCUCACCCCACCCAAGAAAGAAAGAAAGUUUUUGGCGUUUCUUUUCCUUCCCCAUACAAAGUGAUUACAGUUUCCCCCGCAAGGGUCUAUCGAAGGGCUUGACGGA	0.642
CUGGCCUGGCCCUCCCCAGGGGCCUCCUUCUCUGCAUUCACUGCUUCUGCAUCAGAUACUUUCAGCUCCAAGUCCUGACUGGGUGGGGCACCCAUUUCAGGCAGAAGGUUUUGGUACCCU	0.377

Study 3
Target: PABPC1L2, full length, GST fusion (mouse, UniProt A0ABA7IW68)
Technique: RNAcompete
Molecule type: RNA
Sample: in vitro
Tested at: 20 nM
Setting: 7-mer, probes averaged, single round
Reference: mean of 7-mers
Reading: higher = stronger binding
Construct (chain): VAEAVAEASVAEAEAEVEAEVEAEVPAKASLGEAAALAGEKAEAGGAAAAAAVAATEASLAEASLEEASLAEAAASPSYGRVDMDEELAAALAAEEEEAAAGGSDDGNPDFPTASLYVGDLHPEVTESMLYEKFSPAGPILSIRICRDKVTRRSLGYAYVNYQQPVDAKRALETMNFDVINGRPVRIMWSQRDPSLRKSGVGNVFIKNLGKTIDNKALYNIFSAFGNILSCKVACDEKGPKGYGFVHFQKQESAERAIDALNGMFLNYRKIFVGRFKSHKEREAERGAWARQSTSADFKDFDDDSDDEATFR
Oligonucleotide	7-mer Z-score
ACUACCA	-0.2
GCCGUCA	-0.224
AGCAGAU	0.0569
CCCUGAU	-0.229
UAACUCG	-0.315
CAUGAUU	-0.0881
CAGUCAC	0.0642
UUAAAGU	0.432
CCGUAAA	1.2
GAGCCGA	-0.275
CUUUAUG	-0.0283
GGCAUCU	0.0605
AGACCCA	-0.237
CCCGUCA	-0.296
AUAGCGG	-0.119
GUUAUAC	-0.175
CUCUAAU	-0.22
CUAAGGG	0.149
ACCGACU	-0.121
CGACUAC	-0.162
ACUAGAG	-0.0772
UCCAUCU	-0.338
GCUUUCU	-0.356
UUGGUAC	-0.128

Study 4
Target: Ras GTPase-activating protein-binding protein 1, full length (G3BP1, Homo sapiens, UniProt Q13283)
UniProt Q13283, sequence (whole entry, looked up): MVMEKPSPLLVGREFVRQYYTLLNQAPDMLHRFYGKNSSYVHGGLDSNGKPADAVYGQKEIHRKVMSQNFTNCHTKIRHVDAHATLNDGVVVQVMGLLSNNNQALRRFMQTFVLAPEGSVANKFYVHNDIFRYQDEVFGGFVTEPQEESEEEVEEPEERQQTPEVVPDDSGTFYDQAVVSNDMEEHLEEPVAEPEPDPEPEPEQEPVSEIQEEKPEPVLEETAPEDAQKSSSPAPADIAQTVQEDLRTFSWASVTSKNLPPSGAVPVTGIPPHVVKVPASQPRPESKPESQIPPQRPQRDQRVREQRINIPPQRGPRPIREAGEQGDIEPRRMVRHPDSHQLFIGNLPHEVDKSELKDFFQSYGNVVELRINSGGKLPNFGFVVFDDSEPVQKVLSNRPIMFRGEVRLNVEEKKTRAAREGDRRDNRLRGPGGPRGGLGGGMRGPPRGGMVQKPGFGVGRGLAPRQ
Technique: RNA Bind-n-Seq
Molecule type: RNA
Sample: in vitro
Tested at: 200 nM
Setting: whole 134-nt RNA, ends assumed
With: 150 mM LiCl
Reference: input library
Reading: higher = stronger binding
All molecules: 7-deaza-guanosine replaces G
Shared flanks, not repeated: GGGAGUUCUACAGUCCGACGAUC … UGGAAUUCUCGGGUGUCAAGG
Oligonucleotide	log2 enrichment
CUGUGCUACACAUCGUAUGUACCGAAUCGGGGCCCCCCCGGGCCCCCCCGGGCCCCCCCGGAAAGUAUUAUGUUACGCCGUUCGGAUCUG	0.681
CUGUGCUACACAUCGUAUGUACCGAAUCGGGGUUUUUUUGGUUUUUUUGGUUUUUUUGGGGAAAGUAUUAUGUUACGCCGUUCGGAUCUG	0.949
CUCAAGUCCUGUGCUACACAUCGUAUGUACCGAAUCGGGGCCGGCCGGCCGGGGAAAGUAUUAUGUUACGCCGUUCGGAUCUGCACUUCC	0.738
AGUCCUGUGCUACACAUCGUAUGUACCGAAUCGGCCCCCGGGCCCCCGGCCCCCGGGGAAAGUAUUAUGUUACGCCGUUCGGAUCUGCAC	0.296
CCUGUGCUACACAUCGUAUGUACCGAAUCGUGUGUGUGUGUGUGUGUGUGUGUGUGUGUGUAAAGUAUUAUGUUACGCCGUUCGGAUCUG	-0.63
UUCAUUCUUACUUUGAAUCUAGGAUUUUAUGGAAGACCUUGGGUUAUGGAACAGAGAAAAGAACUCUUUAGAAGGUAAAUCUUCAUUAUA	-1.79
CAAGUCCUGUGCUACACAUCGUAUGUACCGAAUCGGCCCCGGGGCCCCGGCCCCGGAAAGUAUUAUGUUACGCCGUUCGGAUCUGCACUU	-0.822
UCAAGUCCUGUGCUACACAUCGUAUGUACCGAAUCGGGCCCGGCCCGGGCCCGGAAAGUAUUAUGUUACGCCGUUCGGAUCUGCACUUCC	-0.119

Some of these lines once more (study 3):
Oligonucleotide	7-mer Z-score
GUUAUAC	-0.175
CUCUAAU	-0.22
CUAAGGG	0.149
ACCGACU	-0.121
CGACUAC	-0.162
ACUAGAG	-0.0772
UCCAUCU	-0.338
